# Results from different studies.
# Every numbered part comes from another study and shows a few of its results, in no order.
# Sequence of UniProt P04629 (whole entry, looked up): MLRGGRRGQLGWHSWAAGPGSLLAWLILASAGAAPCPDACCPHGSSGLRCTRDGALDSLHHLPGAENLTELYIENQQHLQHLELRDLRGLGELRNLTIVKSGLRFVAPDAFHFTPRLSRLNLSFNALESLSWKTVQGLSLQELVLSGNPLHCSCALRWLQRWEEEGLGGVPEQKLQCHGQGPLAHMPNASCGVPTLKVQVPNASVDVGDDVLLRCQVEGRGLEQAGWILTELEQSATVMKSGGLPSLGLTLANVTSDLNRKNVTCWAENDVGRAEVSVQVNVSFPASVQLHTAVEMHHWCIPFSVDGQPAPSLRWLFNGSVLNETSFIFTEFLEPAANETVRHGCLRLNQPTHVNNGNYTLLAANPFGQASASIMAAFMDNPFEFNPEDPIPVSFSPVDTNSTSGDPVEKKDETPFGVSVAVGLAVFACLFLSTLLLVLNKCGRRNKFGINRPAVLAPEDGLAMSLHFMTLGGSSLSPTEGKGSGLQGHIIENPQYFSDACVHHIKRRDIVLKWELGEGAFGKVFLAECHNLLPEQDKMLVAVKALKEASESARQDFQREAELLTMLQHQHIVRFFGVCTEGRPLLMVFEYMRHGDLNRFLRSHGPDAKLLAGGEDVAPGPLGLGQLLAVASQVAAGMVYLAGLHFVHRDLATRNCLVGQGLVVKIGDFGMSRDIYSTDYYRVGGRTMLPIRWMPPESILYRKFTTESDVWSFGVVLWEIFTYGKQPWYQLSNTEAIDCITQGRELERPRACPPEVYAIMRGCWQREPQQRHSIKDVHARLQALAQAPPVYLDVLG
# Sequence of UniProt P04049 (whole entry, looked up): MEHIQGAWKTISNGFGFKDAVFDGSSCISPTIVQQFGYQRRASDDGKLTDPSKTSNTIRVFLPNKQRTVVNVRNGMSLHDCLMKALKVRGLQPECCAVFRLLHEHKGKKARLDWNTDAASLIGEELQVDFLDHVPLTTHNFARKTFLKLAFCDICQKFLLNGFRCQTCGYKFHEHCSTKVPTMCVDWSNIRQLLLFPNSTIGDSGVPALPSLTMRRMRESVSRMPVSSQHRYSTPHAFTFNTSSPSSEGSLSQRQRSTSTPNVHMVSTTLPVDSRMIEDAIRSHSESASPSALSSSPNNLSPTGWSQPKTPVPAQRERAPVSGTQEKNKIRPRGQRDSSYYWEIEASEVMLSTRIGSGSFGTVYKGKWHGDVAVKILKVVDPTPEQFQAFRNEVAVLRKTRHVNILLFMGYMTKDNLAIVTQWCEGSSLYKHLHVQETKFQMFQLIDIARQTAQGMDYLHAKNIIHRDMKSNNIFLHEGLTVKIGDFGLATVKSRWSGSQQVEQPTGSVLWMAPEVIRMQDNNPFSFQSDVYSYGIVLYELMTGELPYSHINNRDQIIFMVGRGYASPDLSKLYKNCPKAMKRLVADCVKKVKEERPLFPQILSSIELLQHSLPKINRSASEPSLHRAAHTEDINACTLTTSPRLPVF
# Sequence of UniProt Q08345 (whole entry, looked up): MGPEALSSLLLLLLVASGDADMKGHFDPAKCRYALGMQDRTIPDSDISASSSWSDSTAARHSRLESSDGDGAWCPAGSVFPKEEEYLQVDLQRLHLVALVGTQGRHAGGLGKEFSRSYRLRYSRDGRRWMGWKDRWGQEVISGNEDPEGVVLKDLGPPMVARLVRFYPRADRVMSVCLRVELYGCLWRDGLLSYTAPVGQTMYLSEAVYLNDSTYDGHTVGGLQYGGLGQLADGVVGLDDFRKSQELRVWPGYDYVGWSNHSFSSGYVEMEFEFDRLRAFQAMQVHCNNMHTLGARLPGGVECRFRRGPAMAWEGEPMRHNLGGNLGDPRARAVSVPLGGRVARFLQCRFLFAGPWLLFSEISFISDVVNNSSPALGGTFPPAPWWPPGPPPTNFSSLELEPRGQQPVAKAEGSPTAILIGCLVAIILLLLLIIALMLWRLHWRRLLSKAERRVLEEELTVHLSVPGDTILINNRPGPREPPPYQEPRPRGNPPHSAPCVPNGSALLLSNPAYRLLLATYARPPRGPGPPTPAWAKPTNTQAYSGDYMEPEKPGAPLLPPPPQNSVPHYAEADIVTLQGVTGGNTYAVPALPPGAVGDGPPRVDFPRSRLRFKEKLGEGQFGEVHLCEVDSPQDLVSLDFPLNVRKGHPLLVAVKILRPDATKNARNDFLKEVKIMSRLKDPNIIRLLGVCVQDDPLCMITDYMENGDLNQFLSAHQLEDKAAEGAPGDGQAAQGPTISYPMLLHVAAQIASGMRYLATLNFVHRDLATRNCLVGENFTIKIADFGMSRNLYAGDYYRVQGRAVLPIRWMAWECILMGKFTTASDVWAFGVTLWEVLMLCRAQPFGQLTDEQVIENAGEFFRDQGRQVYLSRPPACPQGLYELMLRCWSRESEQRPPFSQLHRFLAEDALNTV
# Sequence of UniProt O14976 (whole entry, looked up): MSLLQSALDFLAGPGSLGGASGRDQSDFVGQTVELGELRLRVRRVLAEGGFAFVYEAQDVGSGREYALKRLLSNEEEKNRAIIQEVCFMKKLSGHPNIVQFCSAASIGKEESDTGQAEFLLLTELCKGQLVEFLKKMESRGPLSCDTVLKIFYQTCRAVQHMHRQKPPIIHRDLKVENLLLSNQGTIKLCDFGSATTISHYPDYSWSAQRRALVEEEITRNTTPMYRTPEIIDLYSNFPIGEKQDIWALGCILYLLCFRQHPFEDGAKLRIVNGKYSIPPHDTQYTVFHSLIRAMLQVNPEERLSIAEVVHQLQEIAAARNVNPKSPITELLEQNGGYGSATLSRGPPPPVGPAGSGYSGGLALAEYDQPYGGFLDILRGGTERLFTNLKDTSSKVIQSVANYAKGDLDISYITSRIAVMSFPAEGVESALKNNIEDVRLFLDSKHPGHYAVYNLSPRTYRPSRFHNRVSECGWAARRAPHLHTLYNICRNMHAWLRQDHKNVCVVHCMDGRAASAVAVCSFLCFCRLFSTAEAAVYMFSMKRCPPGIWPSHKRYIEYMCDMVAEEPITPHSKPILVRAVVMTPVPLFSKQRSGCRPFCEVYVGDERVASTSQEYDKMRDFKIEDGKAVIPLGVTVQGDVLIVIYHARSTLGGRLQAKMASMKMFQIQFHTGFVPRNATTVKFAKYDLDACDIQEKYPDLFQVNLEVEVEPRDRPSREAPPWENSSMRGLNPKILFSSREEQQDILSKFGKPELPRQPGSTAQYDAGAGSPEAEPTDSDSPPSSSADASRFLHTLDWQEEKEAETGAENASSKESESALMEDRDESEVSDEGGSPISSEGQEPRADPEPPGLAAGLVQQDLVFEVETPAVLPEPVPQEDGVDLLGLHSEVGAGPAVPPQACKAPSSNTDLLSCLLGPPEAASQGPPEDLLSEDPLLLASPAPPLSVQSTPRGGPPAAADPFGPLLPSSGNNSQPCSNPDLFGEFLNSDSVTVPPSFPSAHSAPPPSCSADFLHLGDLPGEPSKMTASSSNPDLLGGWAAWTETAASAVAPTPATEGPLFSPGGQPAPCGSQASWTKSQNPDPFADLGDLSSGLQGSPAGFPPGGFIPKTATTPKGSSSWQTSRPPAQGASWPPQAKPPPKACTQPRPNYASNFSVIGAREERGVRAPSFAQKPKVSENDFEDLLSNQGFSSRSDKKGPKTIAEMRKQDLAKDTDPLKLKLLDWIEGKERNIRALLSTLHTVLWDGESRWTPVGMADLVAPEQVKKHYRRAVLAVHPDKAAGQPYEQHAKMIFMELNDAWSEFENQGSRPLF

# Sample 1 — observed: enzyme activity; mode: inhibitor; concentration: 0.5 µM; reference: control
# Target: Death-associated protein kinase 2 (DAPK2, Homo sapiens, UniProt Q9UIK4)
# Sequence of UniProt Q9UIK4 (whole entry, looked up): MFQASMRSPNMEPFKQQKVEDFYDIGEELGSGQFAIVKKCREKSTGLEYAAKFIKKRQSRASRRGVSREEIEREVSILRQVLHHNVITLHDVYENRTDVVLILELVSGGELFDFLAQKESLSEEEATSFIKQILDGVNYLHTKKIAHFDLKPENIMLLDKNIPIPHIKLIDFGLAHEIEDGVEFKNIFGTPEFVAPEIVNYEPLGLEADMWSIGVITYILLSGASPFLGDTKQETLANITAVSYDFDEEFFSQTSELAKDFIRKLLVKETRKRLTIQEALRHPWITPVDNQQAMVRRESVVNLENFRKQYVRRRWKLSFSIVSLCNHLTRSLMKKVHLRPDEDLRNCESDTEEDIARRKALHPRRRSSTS
Structure (SMILES),remaining activity
COc1cc2ncnc(Nc3ccc(F)c(Cl)c3)c2cc1OCCCN1CCOCC1,93.2%
O=C1NC(=O)C(c2cn(CCCO)c3ncccc23)=C1c1cnccn1,88.4%
Oc1ccc(-c2nc(-c3ccncc3)c(-c3ccc(F)cc3)[nH]2)cc1,96.8%
Cc1ccc(NC(=O)c2ccc(CN3CCN(C)CC3)cc2)cc1Nc1nc(-c2cccnc2)cs1,104%
COc1ccc(OC)c2c(=S)c3ccccc3[nH]c12,94%
Nc1ncnc2n[nH]c(Nc3ccc(F)cc3)c12,85.5%
Cc1cccc(-c2[nH]c(C(C)(C)C)nc2-c2ccc3c(c2)OCO3)n1,102%
Cc1nc(-c2ccccc2)c(-c2ccncc2)o1,106%
O=c1c2ccccc2[nH]c(=S)n1CCN1CCC(=C(c2ccc(F)cc2)c2ccc(F)cc2)CC1,104%
O=C1NC(=O)C(c2cn(CCCn3ccnc3)c3ccccc23)=C1Nc1ccccc1,104%
Cc1ccc(Nc2nccc(N(C)c3ccc4c(C)n(C)nc4c3)n2)cc1S(N)(=O)=O,93%
O=C(Nc1cccc(Nc2cc(Nc3cccc(C(F)(F)F)c3)ncn2)c1)C1CC1,99%
COc1cc2ncnc(Nc3ccc(Oc4ccccc4)cc3)c2cc1OC,102%
O=S(=O)(c1cccc2cnccc12)N1CCCNCC1,83.6%
CN(C)c1ccc(C=C2C(=O)Nc3ccccc32)cc1,105%
CNC(=O)c1cc(Oc2ccc(NC(=O)Nc3ccc(Cl)c(C(F)(F)F)c3)cc2)ccn1,111%

# Sample 2 — observed: cell-free assay; method: competition with immobilised ligand; concentration: 1 µM
# SMILES: COc1ccc2c(c1)O[C@@H](c1ccc(OC)c(OC)c1)C[C@H]2NC(=O)C1(c2ccc3c(c2)OC(F)(F)O3)CC1
target,remaining binding
"Mitogen-activated protein kinase kinase kinase 14 (MAP3K14, Homo sapiens, UniProt Q99558)",87%
"High affinity nerve growth factor receptor (NTRK1, Homo sapiens, UniProt P04629)",100%
"Non-receptor tyrosine-protein kinase TNK1 (TNK1, Homo sapiens, UniProt Q13470)",100%
"Mitogen-activated protein kinase 6 (MAPK6, Homo sapiens, UniProt Q16659)",100%
"Receptor-type tyrosine-protein kinase FLT3 (FLT3, Homo sapiens, UniProt P36888, F691L/ITD)",76%
"Ribosomal protein S6 kinase alpha-4, N-terminal kinase domain (RPS6KA4, Homo sapiens, UniProt O75676)",94%
"Receptor-type tyrosine-protein kinase FLT3, autoinhibited (FLT3, Homo sapiens, UniProt P36888)",80%
"Tyrosine-protein kinase Fyn (FYN, Homo sapiens, UniProt P06241)",96%
"Cyclin-G-associated kinase (GAK, Homo sapiens, UniProt O14976)",100%
"Proto-oncogene tyrosine-protein kinase Src (SRC, Homo sapiens, UniProt P12931)",100%
"Tyrosine-protein kinase JAK2, JH1 (JAK2, Homo sapiens, UniProt O60674)",75%
"RAF proto-oncogene serine/threonine-protein kinase (RAF1, Homo sapiens, UniProt P04049)",100%
"Tyrosine-protein kinase Lyn (LYN, Homo sapiens, UniProt P07948)",100%
"Epithelial discoidin domain-containing receptor 1 (DDR1, Homo sapiens, UniProt Q08345)",100%
"Leukocyte tyrosine kinase receptor (LTK, Homo sapiens, UniProt P29376)",100%

# Sample 3 — method: Phase 2a trial; host: idiopathic pulmonary fibrosis patients
# Structure (SMILES): CC(C)n1cnc(-c2ccc(F)cc2)c1-c1ncc(C(=O)Nc2ccc(N3CCN(C)CC3)cc2)[nH]1
measured,route,dose,setting,patients with adverse events
blood bilirubin increased,,dose not given,"grade 5 maximum intensity, all arms",0%
weight increased,,60 mg once daily,grade 3 maximum intensity,0%
vision blurred,,dose not given,"grade 5 maximum intensity, all arms",0%
bile acids increased,,30 mg once daily,grade 5 maximum intensity,0%
weight increased,,60 mg once daily,grade 4 maximum intensity,0%
urinary tract infection,,60 mg once daily,grade 5 maximum intensity,0%
oral herpes,oral,30 mg once daily,grade 4 maximum intensity,0%

# Further values, each from its own experiment — cell line: A-375; concentration: 100 µM; time: 60 h
Compound,viability [%]
Cc1ccc(NC(=O)c2ccc(CN3CCN(C)CC3)cc2)cc1Nc1nc(-c2cccnc2)cs1,5.2
CO/N=C(\C(=O)N[C@@H]1C(=O)N2C(C(=O)O)=C(COC(N)=O)CS[C@H]12)c1ccco1,109

# Repeated from above (sample 1):
Structure (SMILES),remaining activity
O=C1NC(=O)C(c2cn(CCCn3ccnc3)c3ccccc23)=C1Nc1ccccc1,104%
Cc1ccc(Nc2nccc(N(C)c3ccc4c(C)n(C)nc4c3)n2)cc1S(N)(=O)=O,93%
O=C(Nc1cccc(Nc2cc(Nc3cccc(C(F)(F)F)c3)ncn2)c1)C1CC1,99%
COc1cc2ncnc(Nc3ccc(Oc4ccccc4)cc3)c2cc1OC,102%
O=S(=O)(c1cccc2cnccc12)N1CCCNCC1,83.6%
